Assay results of several laboratories.
Protocols differ between the studies behind these lines. Numbers after ± are the reported error.
Ubiquitin carboxyl-terminal hydrolase 39 ZnF-UBD domain: Ubiquitin carboxyl-terminal hydrolase 39, ZnF-UBD domain (Homo sapiens, UniProt Q53GS9)
Sequence of UniProt Q53GS9 (whole entry, looked up): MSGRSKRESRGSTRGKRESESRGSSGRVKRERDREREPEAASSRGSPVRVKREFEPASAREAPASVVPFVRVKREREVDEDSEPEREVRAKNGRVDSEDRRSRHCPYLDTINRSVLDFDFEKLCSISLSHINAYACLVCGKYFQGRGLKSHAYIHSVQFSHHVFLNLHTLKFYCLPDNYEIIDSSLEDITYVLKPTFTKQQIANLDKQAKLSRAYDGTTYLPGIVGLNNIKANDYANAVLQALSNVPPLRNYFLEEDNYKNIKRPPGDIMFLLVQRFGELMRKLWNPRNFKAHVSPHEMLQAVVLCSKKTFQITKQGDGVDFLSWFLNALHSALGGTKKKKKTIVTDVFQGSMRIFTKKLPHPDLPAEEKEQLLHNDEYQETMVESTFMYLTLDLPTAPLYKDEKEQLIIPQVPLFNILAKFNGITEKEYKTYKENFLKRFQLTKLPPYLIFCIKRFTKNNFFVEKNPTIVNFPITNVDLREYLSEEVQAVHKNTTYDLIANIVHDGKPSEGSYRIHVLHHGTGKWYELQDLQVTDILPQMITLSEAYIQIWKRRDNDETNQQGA

SMILES | tested on | assay | system | conditions | scale | quantity | value
Cn1cc(Nc2nccc(-c3ccc4c(c3)CN(C3COC3)CC[C@H]4NC(=O)c3cn(C(C)(C)C)nn3)n2)cn1 | – | refers to: Monocytes count | human, clinical trial, whole blood | 150 mg twice daily, follow-up | – | percent change from baseline | -12.4%
C#C[C@]1(O)CC[C@H]2[C@@H]3CCc4cc(O)ccc4[C@H]3CC[C@@]21C | – | – | fed state dissolution | 1.25 h | – | cumulative release in stomach | 82%
FC(F)(F)c1ccc([C@@H]2COC[C@H](c3cnc(-c4ccccc4)nc3)N2)cc1 | – | shake-flask, 1-octanol/buffer | – | pH 7.4 | – | logD | > 4.7
Cc1cc(Nc2cc3ncccc3c(N[C@@H]3C[C@H]4CC[C@@H](C3)N4CCC#N)n2)n[nH]1 | – | – | healthy human | oral, 10 mg single dose, 2 weeks | – | subjects with epistaxis | 0%
Cc1ccc([C@@H]2O[C@H](CO)[C@@H](O)[C@H](O)[C@H]2O)cc1Cc1ccc(-c2ccc(F)cc2)s1 | – | – | Japanese type 2 diabetes patients | 200 mg, day 3, 24 h urine collection | reference: baseline | urinary chloride excretion change | -0.67 mEq
Cc1cn(-c2cc(NC(=O)c3ccc(C)c(Nc4nccc(-c5cccnc5)n4)c3)cc(C(F)(F)F)c2)cn1 | – | population PK model, typical value | human, plasma | oral, fasted state | – | secondary depot absorption rate constant | 0.141 h⁻¹
C[C@@H](O)[C@H](NC(=O)c1ccc(-c2ccccc2)cc1)C(=O)NO | – | – | octanol/buffer | pH 7.4 | – | logD | 1.97
CCOC(=O)N1C[C@@H](C2CCCCC2)N[C@@H](c2ccc(C(F)(F)F)cc2)C1 | – | shake-flask, 1-octanol/buffer | – | pH 7.4 | – | logD | > 4.7
O=C(O)c1cccc(CSc2nnc(-c3ccncc3)o2)c1 | – | – | octanol/buffer | pH 7.4 | – | logD | -0.44
C[C@@H]1CN(c2cccc(-c3ccc4ncnc(Nc5ncco5)c4c3)c2)C[C@H](C)O1 | – | – | human liver microsomes | – | – | CLint | 29 µL/min/mg
C/C(=N\c1ccc(O)cc1)c1cc2ccccc2n1C | – | – | rat plasma | 0.78 ng/mL, 4 h, room temperature | reference: nominal concentration | remaining compound | 98.5 ± 9.7%
C=CC(=O)NC1CCN(c2ncc3ncnc(Nc4ccc(Oc5ccc6c(c5)ncn6C)c(C)c4)c3n2)CC1 | – | – | healthy male humans | oral, 240 mg | – | participants with serious AE | 0%
NC(N)=NCCC[C@@H](N)C(=O)N[C@@H](CCCN=C(N)N)C(=O)N1CCC[C@H]1C(=O)N1C[C@H](O)C[C@H]1C(=O)NCC(=O)N[C@@H](Cc1cccs1)C(=O)N[C@@H](CO)C(=O)N1Cc2ccccc2C[C@@H]1C(=O)N1[C@H](C(=O)N[C@@H](CCCN=C(N)N)C(=O)O)C[C@@H]2CCCC[C@@H]21 | – | popPK base model typical value | human | subcutaneous | – | absorption lag time | 0.0418 h
CCCCCN1C[C@H](O)[C@@H](O)[C@H](O)[C@@H]1CO | – | LC-MS/MS | Hexb-/- mice, total, brain | 30 mg/kg/day | – | geometric mean brain concentration | 37 ng/g
[O]=[Co].[O]=[Co][O][Co]=[O] | – | – | rat, male, urine, 24-h collection | oral gavage, single, 300 mg/kg (220 mg Co/kg), day 2, vehicle 0.5% HPMC | – | cobalt concentration | 379 µg/L
O=C(N[C@H](Cc1c[nH]c2ccccc12)C(=O)Nc1ccncc1)c1ccc(-c2cc(C(F)(F)F)ccc2F)cc1F | – | – | Swiss Webster mouse, female, brain | oral, 50 mg/kg, 8 h, 20% HPβCD vehicle | – | concentration | 160 nM
NCCONC(=O)[C@@H]1CC[C@@H]2CN1C(=O)N2OS(=O)(=O)O | – | – | healthy Chinese male subjects | intravenous, 2 g | – | number of Severe TRAE events | 0
COc1ncc(-c2nc3c(n2C(C)C)[C@H](c2ccc(Cl)cc2)N(c2cc(Cl)cn(C)c2=O)C3=O)c(OC)n1 | – | – | human patients, plasma | oral, 100 mg, high-dose arm, cycle 2 day 1 | – | median Tmax | 2.5 h
O=C(O)Cn1cc2ccccc2n1 | Ubiquitin carboxyl-terminal hydrolase 39 ZnF-UBD domain | – | – | – | – | Kd | 665 µM
Cc1cc(C)c(CNC(=O)c2cc(Cl)c3c(c2C)O[C@@](C)([C@H]2CC[C@H](N(C)C)CC2)O3)c(=O)[nH]1 | – | CTCAE v4.0 | human, relapsed/refractory NHL | oral, 200 mg once daily | – | grade ≥3 drug-related TEAE patients | 29.2%
CNC(=O)c1ccc(-c2cnc3ncc(Cc4ccc5ncccc5c4)n3n2)cc1F | – | – | Japanese patients | oral, 400 mg twice daily, any grade | – | Dysphonia patients | 1%
CC(C)CC(=O)C(=O)O | – | binding, equilibrium dialysis LC-MS | – | 5 µM, thermostabilized A2AR-BRIL construct | reference: no-protein control, direction not given | z-scored log2 fold change | -0.0335
Cc1c(Cl)c(C)[n+]([O-])c(Cl)c1-c1noc(-c2cc(O)c(O)c([N+](=O)[O-])c2)n1 | – | glucuronidation, substrate | human intestinal microsomes | pH 7.5 | – | Km | 41.9 ± 26.9 µM
NC1(C(=O)N[C@@H](CCO)c2ccc(Cl)cc2)CCN(c2nc[nH]c3nccc2-3)CC1 | – | – | metastatic CRPC patients | 480 mg b.i.d., grade 3 to 4, treatment-related, added: enzalutamide 160 mg daily | – | incidence of lower abdominal pain | 0%
CC[C@H](C)[C@H](NC(=O)[C@H](Cc1ccccc1)NC(=O)[C@H](CCC(=O)O)NC(=O)[C@H](CCCCNC(=O)COCCOCCNC(=O)COCCOCCNC(=O)CC[C@H](NC(=O)CCCCCCCCCCCCCCCCC(=O)O)C(=O)O)NC(=O)[C@H](C)NC(=O)[C@H](C)NC(=O)[C@H](CCC(N)=O)NC(=O)CNC(=O)[C@H](CCC(=O)O)NC(=O)[C@H](CC(C)C)NC(=O)[C@H](Cc1ccc(O)cc1)NC(=O)[C@H](CO)NC(=O)[C@H](CO)NC(=O)[C@@H](NC(=O)[C@H](CC(=O)O)NC(=O)[C@H](CO)NC(=O)[C@@H](NC(=O)[C@H](Cc1ccccc1)NC(=O)[C@@H](NC(=O)CNC(=O)[C@H](CCC(=O)O)NC(=O)C(C)(C)NC(=O)[C@@H](N)Cc1cnc[nH]1)[C@@H](C)O)[C@@H](C)O)C(C)C)C(=O)N[C@@H](C)C(=O)N[C@@H](Cc1c[nH]c2ccccc12)C(=O)N[C@@H](CC(C)C)C(=O)N[C@H](C(=O)N[C@@H](CCCNC(=N)N)C(=O)NCC(=O)N[C@@H](CCCNC(=N)N)C(=O)NCC(=O)O)C(C)C | – | 12-lead Holter ECG | healthy humans | subcutaneous, 1.5 mg once weekly, 48 h, steady state | reference: placebo | QTcF change from baseline | -0.4 ms

SMILES | tested on | assay | system | conditions | scale | quantity | value
Cc1nc2cccc(OCC(C)(C)C(=O)NC(C)C)c2c(N)c1C(=O)O | – | – | Sprague-Dawley rat, male, plasma | oral, 30 mg/kg | – | Tmax | 22.8 min
c1ccc(CN2CCCN3CCN(Cc4ccccc4)CCCN(CC2)Cc2cccc(n2)C3)cc1 | – | – | 64Cu complex in rat plasma | 0.5 h, 37 °C | – | intact complex | 97%
CCOc1c([C@H](C)n2nc(C)c3c(N)ncnc32)cc(Cl)c(F)c1[C@@H]1CNC(=O)C1 | – | ECG | previously treated B-cell malignancy patients | oral, 45 mg once daily, baseline below thresholds | – | observations with HR ≤100 bpm | 100%
CC#CC(=O)N1CCC[C@H]1c1nc(-c2ccc(C(=O)Nc3ccccn3)cc2)c2c(N)nccn12 | – | – | PBS | 100 µM, 23 h, pH 8, 37 °C, added: cysteine 10 mM | – | cysteine adduct formation | 97%
CCc1c2c(nc3ccc(OC(=O)N4CCC(N5CCCCC5)CC4)cc13)-c1cc3c(c(=O)n1C2)COC(=O)[C@]3(O)CC | – | – | mouse, intestine | intraperitoneal, 50 mg/kg, 24 h | – | tissue concentration | 8780 ± 4650 ng/g
C[C@H](N[C@@H](CCc1ccccc1)C(=O)O)C(=O)N1[C@H](C(=O)O)C[C@H]2CCCC[C@@H]21 | – | – | human plasma | 1000 pg/mL, 3 cycles at -20 °C | reference: nominal | freeze-thaw stability | 83 ± 14.2%
O=C(O)CCn1sc2ccccc2c1=O | Ubiquitin carboxyl-terminal hydrolase 39 ZnF-UBD domain | – | – | – | – | Kd | > 1000 µM
Cc1cc(NC2CCN(C(=O)OC3CCN(C(=O)/C=C/CN(C)C)C3)CC2)n2ncc(C(C)C)c2n1 (stereo not shown) | – | – | patients with advanced solid tumours | dose not given, QD arm, any grade | – | patients with Dyspepsia | 7%
CC(C)Nc1ccnc(Nc2cccc(C(C)(C)C)c2)n1 | – | – | MDCKII-WT cells | 10 µM, pH 7.4 | reference: Papp B-A over A-B | efflux ratio | 1.31
Cc1cc(-c2nccc3c2ccn3CC(=O)Nc2ccc(-c3cnccn3)cn2)ccn1 | – | – | human | 15 mg once daily, multiple ascending dose | – | general or administration site disorders | 66.7%
C[C@@H](N)C1CCN(S(=O)(=O)c2cccc3cnccc23)CC1 | – | – | healthy volunteers | 150 mg single dose, fed | – | participants with serious TEAEs | 0%
C[C@H](N)C(=O)O | – | binding, equilibrium dialysis LC-MS | – | 5 µM, thermostabilized A2AR-BRIL construct | reference: no-protein control, direction not given | z-scored log2 fold change | 0.1
C[C@@H](O)CCOC(=O)C[C@@H](C)O | – | – | human | oral drink, dose not given, 60 min post dose, mean | – | diastolic blood pressure | 66 mmHg
NC[C@@]1(CC(=O)O)[C@@H]2CC[C@H]3C[C@@H]2[C@@H]1C3 | – | – | human, mild renal impairment, plasma | dose not given | reference: normal renal function | unbound Cmax increase | 4.4%
CC1(C)CCCCN1CC(=O)Nc1nnc(S(N)(=O)=O)s1 | Alpha-carbonic anhydrase (Enterococcus faecium, UniProt Q3XYE8) | CO2 hydration, inhibitor, stopped-flow kinetics | – | – | – | Ki | 14.5 nM
COc1ccc2c(=O)n(C)c(-c3ccccc3)nc2c1 | – | – | Sprague-Dawley rat, male, small intestine | oral, 30 mg/kg, 0.25 h | – | concentration | 19600 ng/mL
C=CCn1c(=O)c2cnc(Nc3ccc(N4CCN(C)CC4)cc3)nc2n1-c1ccc2c(n1)[C@@](O)(CC)CC2 | – | – | A-427, female NOD/SCID mouse xenograft, plasma | oral, 20 mg/kg once daily | – | AUC(0-24) | 3300 ng·h/mL
COc1nc(-c2cc(C)c(N[C@@H](C)c3cc(F)cc(F)c3)nn2)ccc1-n1cnc(C)c1 | – | – | C57BL/6J mice, male, brain | oral, 10 mg/kg daily for 9 days, 4 h after last dose | – | brain concentration | 2030 ng/g
C[C@H]1OC[C@H](c2ccc(-c3ccccn3)cc2)N[C@@H]1c1cccc(Cl)c1 | – | shake-flask, 1-octanol/buffer | – | pH 7.4 | – | logD | > 4.7
CC(C)(C(=O)N1CCOc2c(C#N)cncc2C1)C(F)F | – | refers to: ALT increased | human | oral, 40 mg, CSF pharmacokinetic cohort | – | subjects with adverse event | 0%
CCN1CCN(Cc2ccc(NC(=O)c3ccc(C)c(NC(=O)c4cncc(-c5cccs5)c4)c3)cc2C(F)(F)F)CC1 | – | LC-MS/MS | C57BL/6 mouse, plasma | intraperitoneal, 20 mg/kg single dose, 8 h | – | mean plasma concentration | 0.06 µg/mL
O=C(Nc1nc2cccc(-c3ccc(CN4CCS(=O)(=O)CC4)cc3)n2n1)C1CC1 | – | refers to: anaemia | rheumatoid arthritis patients | oral, 75 mg once daily, 4 weeks, any relatedness | – | patients with adverse event | 4.5%
Fc1ccc(-c2nc(-c3c(Cl)cccc3Cl)[nH]c2-c2ccncc2)cc1 | – | PAMPA | – | 16 h | – | membrane retention | > 90%
CCN1CCN(Cc2ccc(Nc3nc4ccc(Oc5ccnc(NC(=O)C6CCN(C)CC6)c5)cc4n3C)cc2C(F)(F)F)CC1 | – | – | plasma | oral | – | oral bioavailability | > 100%

For quick reference, copied from above:
SMILES | tested on | assay | system | conditions | scale | quantity | value
C[C@@H]1CN(c2cccc(-c3ccc4ncnc(Nc5ncco5)c4c3)c2)C[C@H](C)O1 | – | – | human liver microsomes | – | – | CLint | 29 µL/min/mg
C/C(=N\c1ccc(O)cc1)c1cc2ccccc2n1C | – | – | rat plasma | 0.78 ng/mL, 4 h, room temperature | reference: nominal concentration | remaining compound | 98.5 ± 9.7%
C=CC(=O)NC1CCN(c2ncc3ncnc(Nc4ccc(Oc5ccc6c(c5)ncn6C)c(C)c4)c3n2)CC1 | – | – | healthy male humans | oral, 240 mg | – | participants with serious AE | 0%
NC(N)=NCCC[C@@H](N)C(=O)N[C@@H](CCCN=C(N)N)C(=O)N1CCC[C@H]1C(=O)N1C[C@H](O)C[C@H]1C(=O)NCC(=O)N[C@@H](Cc1cccs1)C(=O)N[C@@H](CO)C(=O)N1Cc2ccccc2C[C@@H]1C(=O)N1[C@H](C(=O)N[C@@H](CCCN=C(N)N)C(=O)O)C[C@@H]2CCCC[C@@H]21 | – | popPK base model typical value | human | subcutaneous | – | absorption lag time | 0.0418 h
CCCCCN1C[C@H](O)[C@@H](O)[C@H](O)[C@@H]1CO | – | LC-MS/MS | Hexb-/- mice, total, brain | 30 mg/kg/day | – | geometric mean brain concentration | 37 ng/g
